Results of several laboratories.
Protocols differ between the studies behind these lines. ± marks the error that the study gave.

SMILES | system | conditions | how to read | quantity | result
N=C(N)NCc1ccc(C(=O)NCCCC[C@H](NC(=O)CCCCCCC(=O)NCCCC[C@H](NC(=O)N[C@@H](CCC(=O)O)C(=O)O)C(=O)O)C(=O)O)cc1[211At] | SCID mouse, PC-3 xenografts, kidneys | 21 h | – | tissue uptake | 4.38 ± 3.46 %ID/g
CCCC[C@H](NC(=O)CNC(=O)CNC(=O)c1ccc(NN)nc1)C(=O)N[C@H]1CC(=O)NCCCC[C@@H](C(N)=O)NC(=O)[C@H](Cc2c[nH]c3ccccc23)NC(=O)[C@H](CCCNC(=N)N)NC(=O)[C@@H](Cc2ccccc2)NC(=O)[C@H](Cc2c[nH]cn2)NC1=O [technetium-99m labelled] | C57 mouse, B16/F1 melanoma, spleen | 2 h, with: NDP-MSH 6.07 nmol blockade | – | uptake | 0.13 ± 0.09 %ID/g
CN[C@](C)(C[18F])C(=O)O | SCID mouse U87 xenograft, heart | 15 min, post injection | – | tissue uptake | 3.5 ± 0.4 %ID/g
N=C(N)NCc1ccc(C(=O)NCCCC[C@H](NC(=O)N[C@@H](CCC(=O)O)C(=O)O)C(=O)O)cc1[211At] | SCID mouse, PC-3 xenografts, bone | 2 h | – | tissue uptake | 0.5 ± 0.05 %ID/g
N=C(N)NCCC[C@@H]1NC(=O)[C@H](CCCCNC(=O)CC[C@H](NC(=O)CCOCCOCCOCCOCCNC(=O)CC[C@H](NC(=O)CN2CCN(CC(=O)O)CCN(CC(=O)O)CCN(CC(=O)O)CC2)C(=O)NCCOCCOCCOCCOCCC(=O)N[C@@H](CCC(=O)NCCCC[C@@H]2NC(=O)[C@@H](Cc3ccccc3)NC(=O)[C@H](CC(=O)O)NC(=O)CNC(=O)[C@H](CCCNC(=N)N)NC2=O)C(=O)NCCCC[C@@H]2NC(=O)[C@@H](Cc3ccccc3)NC(=O)[C@H](CC(=O)O)NC(=O)CNC(=O)[C@H](CCCNC(=N)N)NC2=O)C(=O)NCCCC[C@@H]2NC(=O)[C@@H](Cc3ccccc3)NC(=O)[C@H](CC(=O)O)NC(=O)CNC(=O)[C@H](CCCNC(=N)N)NC2=O)NC(=O)[C@@H](Cc2ccccc2)NC(=O)[C@H](CC(=O)O)NC(=O)CNC1=O [indium-111 labelled] | athymic nude mice, female, U-87 MG glioma xenograft, tumour and kidney | intravenous, 1 h | reference: tumour over kidney | tumour to tissue ratio | 1.6 ± 0.27
COc1ccc(C)cc1NC(=O)OC1CC2CCCC(C1)N2Cc1ccc(CC[18F])cc1 (stereo not shown) | BALB/c mice, EMT6 tumour, lung | 1 h | – | tissue uptake | 8.73 ± 2.54 %ID/g
O=C(O)CC[C@H](NC(=O)O[C@@H](CCCCNC(=O)c1ccc([18F])cc1)C(=O)O)C(=O)O | mouse, PC-3 PIP/flu xenografts, muscle | 180 min | – | tissue uptake | 0.03 ± 0.01 %ID/g
N=C(N)NCc1ccc(C(=O)NCCCC[C@H](NC(=O)CCCCCCC(=O)NCCCC[C@H](NC(=O)N[C@@H](CCC(=O)O)C(=O)O)C(=O)O)C(=O)O)cc1[131I] | SCID mouse, PC-3 xenografts, thyroid | 21 h | – | tissue uptake | 0.42 ± 0.35 %ID/g
CC[C@H](C)C(=O)N1CCC(NC(=O)Nc2ccc(OC(F)(F)F)c(F)c2)CC1 | healthy volunteers | oral, 0.5 mg single dose | – | subjects with headache TEAE | 16.7%
CCNc1cc2[o+]c3cc(NCC)c(C)cc3c(-c3ccccc3C(=O)OCCOCC[18F])c2cc1C | rat, bone | 15 min | – | tissue uptake | 0.3 ± 0.08 %ID/g
C=Cc1cc(O)cc2nc(-c3ccc(O)c([76Br])c3)oc12 | female C57BL/6 mouse, muscle | 3 h, high dose | – | tissue uptake | 0.05 ± 0.01 %ID/g
CN(C)c1ccc(C(=O)NCCCCN2CCN(c3ccccc3O[11CH3])CC2)cc1 | male Sprague Dawley rat, lung | iv, 5 min | reference: untreated | tissue uptake | 1.96 ± 0.341 %ID/g
N=C(N)NCCC[C@@H]1NC(=O)[C@H](CCCCNC(=O)CCOCCOCCOCCOCCNC(=O)CN2CCN(CC(=O)O)CCN(CC(=O)O)CCN(CC(=O)O)CC2)NC(=O)[C@@H](Cc2ccccc2)NC(=O)[C@H](CC(=O)O)NC(=O)CNC1=O [indium-111 labelled] | female athymic nude mouse | intravenous, 3 µCi, 72 h, U-87 MG glioma xenograft | reference: tumour over muscle | tumour to muscle ratio | 7.12 ± 2.37
